Measured values pooled from the literature.
Numbered parts are unrelated; each lists some results of a single study.

Study 1 — technique: protein binding microarray; molecule type: double-stranded DNA, one strand shown; medium: in vitro; tested at: not given; reference: not given; reading: higher = stronger binding
Target: Histone acetyltransferase KAT6A, winged helix 2, GST fusion (KAT6A, Homo sapiens, UniProt Q92794, residues 85-181)
Notes: 8-mer, flanks averaged, mean of 2 arrays, mostly near background
Residues (chain): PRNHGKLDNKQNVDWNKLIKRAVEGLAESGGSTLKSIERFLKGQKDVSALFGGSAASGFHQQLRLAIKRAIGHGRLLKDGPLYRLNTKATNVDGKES
Oligonucleotide | E-score
GTCTCGAA | 0.108
AGGCCCCT | -0.0779
AACTGCAC | 0.0997
CTACGTAC | -0.0852
GCAGCGCA | 0.195
ACTTGGAA | 0.00519

Study 2 — technique: competition protein-binding microarray; molecule type: double-stranded DNA, one strand shown; medium: in vitro; tested at: 2 µM; together with: Pho4 competitor, 0.05 µM; reading: higher = stronger binding; all sequences stand within: … GTCTTGATTCGCTTGACGCTGCTG
Target: Centromere-binding protein 1, full length, His-tagged (CBF1, Saccharomyces cerevisiae, UniProt P17106, residues 1-351)
Chain of UniProt P17106 (whole entry, looked up): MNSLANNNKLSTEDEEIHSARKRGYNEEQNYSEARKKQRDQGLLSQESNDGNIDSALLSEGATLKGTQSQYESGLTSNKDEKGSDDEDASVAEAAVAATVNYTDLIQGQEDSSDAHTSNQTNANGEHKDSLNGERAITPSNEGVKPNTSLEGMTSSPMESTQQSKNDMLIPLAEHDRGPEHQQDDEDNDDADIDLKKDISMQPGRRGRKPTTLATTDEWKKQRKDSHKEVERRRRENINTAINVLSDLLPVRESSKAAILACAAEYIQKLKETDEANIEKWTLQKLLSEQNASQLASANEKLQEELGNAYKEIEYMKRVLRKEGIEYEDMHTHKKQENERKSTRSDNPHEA
Notes: whole 60-bp probe, lowest competitor level
Oligonucleotide | fluorescence intensity [a.u.]
CGGGGTTAAGTTTGTTACGTGGGTGGCTTGCAGCAG | 67.5
CTTTCCCGATCTTGAAAAGTGGGTGTAGCACATTTG | 63.8
TCGCAGATGCCATATCCCGTGCCAGATATACTATAA | 242
CCACCATCGTTACCAAATGTGACGGCTGCACCTAAA | 79
AGGGTAACATACCATCACGTGCAAACCAGGATAATT | 4000

Study 3 — technique: protein-binding microarray; molecule type: double-stranded DNA, one strand shown; medium: in vitro; tested at: 2540 nM top; notes: 60-bp whole probe; together with: salmon DNA 0.4 mg/ml; reference: random background probes; reading: higher = stronger binding; all sequences stand within: GCCTAGCAC … GTCTTGATTCGCTTGACGCTGCTG
Target: Interferon regulatory factor 3, full length, phosphomimetic (IRF3, Homo sapiens, UniProt Q14653, residues 1-427, S386D/S396D/S398D/S402D/T404D/S405D)
Residues (chain): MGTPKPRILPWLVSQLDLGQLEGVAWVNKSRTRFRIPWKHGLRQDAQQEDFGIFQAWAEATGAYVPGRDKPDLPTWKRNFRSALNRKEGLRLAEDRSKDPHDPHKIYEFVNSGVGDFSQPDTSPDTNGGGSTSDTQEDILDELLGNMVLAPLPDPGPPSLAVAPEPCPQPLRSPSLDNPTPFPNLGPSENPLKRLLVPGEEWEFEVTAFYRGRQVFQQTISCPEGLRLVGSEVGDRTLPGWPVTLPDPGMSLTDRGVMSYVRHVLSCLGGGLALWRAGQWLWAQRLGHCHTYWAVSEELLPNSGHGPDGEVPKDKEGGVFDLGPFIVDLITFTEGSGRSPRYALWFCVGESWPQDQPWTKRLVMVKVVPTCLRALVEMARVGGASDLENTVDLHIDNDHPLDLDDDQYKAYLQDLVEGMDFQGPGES
Oligonucleotide | fitted relative affinity [z-score]
TTCGAACTGAGTATCGATTAGTGCTAG | 0.394
TTACGTATCGGGTTTCGGTTAGTGCTA | 3.93
ATCCCGCCTGCCCCACAGAAGTGCTAG | -0.25
TTAGGTTTCGGGCCTGGGTTAGTGCTA | 2.12
AACGGTATCGGGACTGGGGACGTGCTA | 1.59

Further values, each from its own experiment
Substance | target | test | test system | conditions | how to read | measurement | value
PhoQ, residues 284 288 289 292 302 303 SLANIV | PhoP, residues 12 14 15 18 19 TPWLV (Escherichia coli, UniProt P23836) | Sort-seq, refers to: YFP reporter | E. coli | PhoQ-PhoP variant library, together with: 10 µM Mg2+ | reference: high Mg2+ state, higher = stronger signaling | fold induction | 16

For quick reference, copied from above (further values, each from its own experiment):
Substance | target | test | test system | conditions | how to read | measurement | value
PhoQ, residues 284 288 289 292 302 303 SLANIV | PhoP, residues 12 14 15 18 19 TPWLV (Escherichia coli, UniProt P23836) | Sort-seq, refers to: YFP reporter | E. coli | PhoQ-PhoP variant library, together with: 10 µM Mg2+ | reference: high Mg2+ state, higher = stronger signaling | fold induction | 16
